Measured values gathered from unrelated publications.
A part holds a random share of what one study measured. Changes are numbered by the printed parent chain.

Set 1 — technique: RNA Bind-n-Seq; molecule type: RNA; matrix: in vitro; tested at: 365 nM; baseline: no-protein control; reading: higher = stronger binding
Target: RNA binding protein fox-1 homolog 2, RRM domain, GST-SBP tag (RBFOX2, Homo sapiens, UniProt O43251-10, residues 100-194)
Notes: natural RNA segment, single round, ends assumed
Residues (chain): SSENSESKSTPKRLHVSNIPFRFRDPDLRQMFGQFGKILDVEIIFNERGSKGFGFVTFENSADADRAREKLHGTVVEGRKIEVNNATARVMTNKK
Sequence | RBNS enrichment (R)
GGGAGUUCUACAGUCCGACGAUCGGUUUUGGUUUGUUUGUUUGUUUUUUCUUUUUUUGAGGAAUUUUCAGGGAAGUGAGGAAACCCUUGGGAGAGGACUUUGUACGCGCUGUGUAGGUGUUAGAUCUAAUUACUGGAAUUCUCGGGUGCCAA | 1.41
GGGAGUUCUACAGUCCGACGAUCCAUAGUAGCAAUUCUGGUGUGGCCAAGGUGUUGGCUGAAGUUUAUUCUUCAUUGGAUGUUUAAAGCAUUUACUCCAUUGUUAAGGUUGGCAUCAUAUAGUCAGUUACUGAUGGAAUUCUCGGGUGCCAA | 0.487
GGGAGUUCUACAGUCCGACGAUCGGAAUGGUGUUGAGGCUACCAAGAAGAAAUCCAUGCAGCCACUUUGGGUUUUGUUAUAGGCAUCAGUCUAACAAGUCAUUAGGUCACUCGGGAAGGGGGAAAAAGUUUAAUGGAAUUCUCGGGUGCCAA | 1.26
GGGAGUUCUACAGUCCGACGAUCCUGCACUGUGUGACCUCUCUGUUGCCAGGGUGGGCAAGGGCUCAGCCACUCUGCCCACUAAAGUGCCCCACCAUGAAACAUUCUGGAGUUGGCCAUCCCAAAUUUCAUCGUGGAAUUCUCGGGUGCCAA | 0.257
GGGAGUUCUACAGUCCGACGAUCAUUUCGAUUGUGUGACAGAUUGAAAUUUAUUGUUUACAUUGGGGAAUGUAUCUCAAAUUUUUAAAUAGAAGAGUAAUAAACAGACUUUAAAGCAAAUAUUAAGAUUUUUAUGGAAUUCUCGGGUGCCAA | 0.814
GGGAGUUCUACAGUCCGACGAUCUCUGUCUGUCUCUACAUGGAUGGACUGAAUAAGAAUGUAAAUAAUAUUUAUUGCAAAGCAAGCCUGGUCAUACUUGCUGCUUGAGAAGCUGAGGCAGGAGGAUCAUGAAUUGGAAUUCUCGGGUGCCAA | 2.17
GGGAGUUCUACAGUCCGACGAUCAUUGCAACCAAAAUGGGGACUUCCUGGGUAGGGAGGUCACUCCCUCUACUCACUGAGCUAGGAUUAGGGAGGGUUAUUGCCCCAACCAUUGCAAUGGGAGGUGGAGGGACUGGAAUUCUCGGGUGCCAA | 0.961
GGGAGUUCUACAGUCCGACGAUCCUUUGCUGCUUUUGGAUUGAGAUGGCGAAUCAAGGCUUCACUUCCUCUCUCUUCUGUCUUUAGAAAGCUGUGAUCGUGCGUGCAAUUAUUUGAAAGGCAACAUAGUCAAUUGGAAUUCUCGGGUGCCAA | 0.503

Set 2 — target: JUN, bZIP domain (human); technique: DHFR protein complementation; matrix: yeast; baseline: wild-type JUN-FOS pair; reading: higher = stronger binding
Notes: single substitutions, most at no-binding floor
Starting sequence: JUN, bZIP domain (human); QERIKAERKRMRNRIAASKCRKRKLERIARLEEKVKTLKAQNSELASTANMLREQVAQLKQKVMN; partner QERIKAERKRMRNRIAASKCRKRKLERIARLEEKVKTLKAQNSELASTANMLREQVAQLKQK
Variant | binding fitness
S47T | -0.192 natural log
A49S | -0.587 natural log
A29E | -0.446 natural log
M51V | -0.28 natural log
A29K | -0.201 natural log
R30E | -0.0833 natural log
A49N | -0.0391 natural log
L52S | -1.17 natural log
A46N | -0.235 natural log
K34Q | 0.0244 natural log
L45V | -1.19 natural log
I28Q | -0.654 natural log
V56D | -0.951 natural log
E54H | -0.5 natural log
K36L | -0.353 natural log
V35T | -1.16 natural log
N42A | -0.838 natural log
E32G | -1.09 natural log
K36A | -0.128 natural log
A29F | -0.437 natural log
E44W | -0.876 natural log
V56R | -1.17 natural log
A46H | -0.259 natural log
K39F | -0.864 natural log

Set 3 — technique: protein binding microarray; molecule type: double-stranded DNA, one strand shown; matrix: in vitro; tested at: not given; baseline: not given; reading: higher = stronger binding
Target: Histone acetyltransferase KAT6A, both winged helices, GST fusion (KAT6A, Homo sapiens, UniProt Q92794, residues 1-181)
Notes: 8-mer, flanks averaged, mean of 2 arrays, mostly near background
Target sequence (chain): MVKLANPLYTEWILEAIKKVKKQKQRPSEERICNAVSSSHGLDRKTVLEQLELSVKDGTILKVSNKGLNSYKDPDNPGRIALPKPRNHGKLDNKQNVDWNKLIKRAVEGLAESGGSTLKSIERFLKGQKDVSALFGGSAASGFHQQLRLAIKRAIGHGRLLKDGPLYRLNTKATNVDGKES
Sequence | E-score
ATGTCGAG | -0.0303
CAGTCATA | -0.192
AGCTAACC | -0.0817
ATCGCATA | 0.132
CACGAAGG | -0.0164
GCAAGAAC | -0.00231
CCTCTAGA | -0.0739
GATTCACC | 0.0681
CGAAGCGC | 0.315
CCTTAAAG | -0.175
ACGCGTAA | 0.312
TAGCGTGA | 0.0948
ACGGCTTC | 0.266
ATACTAGG | -0.163
GCGCTTTA | 0.221
AGTACTAT | -0.0368
CCCTCTCA | -0.284
CTTAGAAG | -0.0405
AGTGCGGC | 0.229
CATAAGTC | -0.0893
TAGATCGA | -0.0939
AGTGTCCA | -0.13
TCGTCGCA | 0.102
ACCACTGG | -0.0935
ACCACACA | -0.0926

Set 4 — technique: RNA Bind-n-Seq; molecule type: RNA; matrix: in vitro; tested at: not given; notes: RNA with constant flanks, ends assumed; baseline: input RNA pool; reading: higher = stronger binding
Target: RING finger protein unkempt homolog, zinc fingers 1-6, GST-SBP tag (UNK, Homo sapiens, UniProt Q9C0B0, residues 30-357)
Chain of UniProt Q9C0B0 (30-357, looked up): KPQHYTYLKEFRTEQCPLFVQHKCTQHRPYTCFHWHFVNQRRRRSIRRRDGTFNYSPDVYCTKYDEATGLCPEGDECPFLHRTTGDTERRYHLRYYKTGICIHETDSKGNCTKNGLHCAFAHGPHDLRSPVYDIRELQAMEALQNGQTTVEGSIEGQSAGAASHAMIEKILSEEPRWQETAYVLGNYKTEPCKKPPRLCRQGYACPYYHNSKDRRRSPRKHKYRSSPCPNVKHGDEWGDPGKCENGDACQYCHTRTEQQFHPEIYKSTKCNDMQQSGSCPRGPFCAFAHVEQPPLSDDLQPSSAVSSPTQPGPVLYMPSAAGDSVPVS
Sequence | bound/input enrichment [ratio]
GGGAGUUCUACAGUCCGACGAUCAAAAUAGACUAUGGUGAAUACAUGGAUAAAAAUAAUGUGAGGCGACAAGCAACAACAAUCACCGCUGAUAAUAUUAUAUUUCUGAGUGACCAGACGAAAGAGAAGGAGUAGAAAGGAUGACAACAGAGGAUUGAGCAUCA | 0.829
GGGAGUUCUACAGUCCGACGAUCCAAGGCUGACAGUAACACUGAUGAAUGCUGAUAAUCAGGAAACAUGAAAGAAGCCAUUUGACCGAUUAUUCUAAAGGAUAUCAUCAAGAAGACUAUUAAAAACACCUAUGCCUAUACUUUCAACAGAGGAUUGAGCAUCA | 0.105
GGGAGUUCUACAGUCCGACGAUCAAAUACAAGCAAGCUUUACUACAGUAUAAGAAGAUCGUGUCUUGGCUGGAAUAUGAGUCCCGUUUUUCCAAUGAGGAAGCACAGAAAGCACAGGCCCUUCGACUGGCCUCUCACCUCAACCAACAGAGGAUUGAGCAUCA | 0.14
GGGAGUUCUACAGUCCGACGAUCCGAGAAGUAGGAAUCCCUCCAGAACAAUCCUUGGAAACUGCUAAGGCAGUAAAGGAGCGCUACCGUUAUGUCUGCCCAGAUUUAGUAAAAGAAUUUAACAAGUAUGAUACAGAUGGGUCACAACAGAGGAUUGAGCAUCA | 1.27
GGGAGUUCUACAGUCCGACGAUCAGUAGGAAAAUUACUGUUUUGCAAGUGAAUGAAAAAUCACUUAUAAGGCAAUAUACAACCUCCGCCGAAUUGGAGCGACAACUUAGAAAAGAAAAUGAGAAGCAAAAGAAUGAAUUGUUGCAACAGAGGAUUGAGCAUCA | 3.86
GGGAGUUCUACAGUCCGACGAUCAGUAUUAUUUAGUGAAUUAAUCUGACCGUACAGAAGAGUCAUGUUCUGACCUCAAUACUACCGUAACUUUUAGGCUUGGAAAUAAAAGUUUGUUGGUAUCUACUGGCAAGUAUUUAAGUUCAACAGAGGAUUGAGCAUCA | 1.12
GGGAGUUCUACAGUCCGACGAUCAUAAAGAUAUCUAGCCAAAAUCUCAAUCUUGCCUUAACAAUGUUUCAGAGACUGAAUAAAAUGUUUGCCGGCGAAGUCACUACUUCUUCCAGCCAAGAACCAGAAUUCAGUGAGAAAGAACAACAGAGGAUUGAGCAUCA | 0.615
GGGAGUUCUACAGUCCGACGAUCUGCAACCAGCCUCAGGAUGCCAUUAAAUGCUACUUAAAUGCAACUAGAAGCAAAAGUUGCCGUAAUACCUCUGCACUUGCAGCACGAAUUAAGUAUUUACAGGCUCAGUUGUGUAACCUUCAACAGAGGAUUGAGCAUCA | 0.154

Excerpt of the above (set 3):
Sequence | E-score
CATAAGTC | -0.0893
TAGATCGA | -0.0939
AGTGTCCA | -0.13
TCGTCGCA | 0.102
ACCACTGG | -0.0935
